Measured values gathered from unrelated publications.
Compare with care: the assays were run in different laboratories.
U2AF2: U2AF2 148-342 (Homo sapiens, UniProt P26368)
UniProt P26368, sequence (whole entry, looked up): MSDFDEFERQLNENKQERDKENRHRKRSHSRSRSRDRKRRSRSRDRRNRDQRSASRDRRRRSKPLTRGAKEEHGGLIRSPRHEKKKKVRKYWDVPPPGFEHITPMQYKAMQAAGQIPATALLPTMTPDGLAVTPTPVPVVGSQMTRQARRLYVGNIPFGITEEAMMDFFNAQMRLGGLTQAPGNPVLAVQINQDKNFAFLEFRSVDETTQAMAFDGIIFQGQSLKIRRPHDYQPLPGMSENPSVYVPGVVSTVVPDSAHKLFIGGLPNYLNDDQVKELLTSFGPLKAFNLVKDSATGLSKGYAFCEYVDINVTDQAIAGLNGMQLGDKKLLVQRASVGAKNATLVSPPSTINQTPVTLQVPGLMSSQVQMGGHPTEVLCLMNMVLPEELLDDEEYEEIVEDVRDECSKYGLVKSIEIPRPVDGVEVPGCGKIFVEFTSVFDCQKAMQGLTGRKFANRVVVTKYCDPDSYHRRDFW
B1: ASAP3 7-282 (Homo sapiens, UniProt Q8TDY4-1); sequence looked up; chain VAEFLAVTAEDLSSPAGAAAFAAKMPRYRGAALAREEILEGDQAILQRIKKAVRAIHSSGLGHVENEEQYREAVESLGNSHLSQNSHELSTGFLNLAVFTREVAALFKNLIQNLNNIVSFPLDSLMKGQLRDGRQDSKKQLEKAWKDYEAKMAKLEKERDRARVTGGIPGEVAQDMQRERRIFQLHMCEYLLKAGESQMKQGPDFLQSLIKFFHAQHNFFQDGWKAAQSLFPFIEKLAASVHALHQAQEDELQKLTQLRDSLRGTLQLESREEHLS
B2: aqpZ 1-231 K155A (Escherichia coli, UniProt P60844); chain MFRKLAAECFGTFWLVFGGCGSAVLAAGFPELGIGFAGVALAFGLTVLTMAFAVGHISGGHFNPAVTIGLWAGGRFPAKEVVGYVIAQVVGGIVAAALLYLIASGKTGFDAAASGFASNGYGEHSPGGYSMLSALVVELVLSAGFLLVIHGATDAFAPAGFAPIAIGLALTLIHLISIPVTNTSVNPARSTAVAIFQGGWALEQLWFFWVVPIVGGIIGGLIYRTLLEKRD
B3: hsp18 28-148 (Oenococcus oeni, UniProt P94898); sequence looked up; chain GPRDGLWESARHNNSIMRTDISENDKEYGLKIELPGLDKKDIKIDYSNDNLTVSGVLSSKAEEKDKKNNVVRSERRYGNYSRSYYVPGVDENKISAKYENGILNLTLPKSDESQTHHIEIQ
B4: POL30 1-258 E113G (Saccharomyces cerevisiae, UniProt P15873); chain MLEAKFEEASLFKRIIDGFKDCVQLVNFQCKEDGIIAQAVDDSRVLLVSLEIGVEAFQEYRCDHPVTLGMDLTSLSKILRCGNNTDTLTLIADNTPDSIILLFEDTKKDRIAGYSLKLMDIDADFLKIEELQYDSTLSLPSSEFSKIVRDLSQLSDSINIMITKETIKFVADGDIGSGSVIIKPFVDMEHPETSIKLEMDQPVDLTFGAKYLLDIIKGSSLSDRVGIRLSSEAPALFQFDLKSGFLQFFLAPKFNDEE
B5: protein S723T (Penicillium verruculosum, UniProt A0A348FUE1); sequence looked up; chain MSPMDLQESAAALVRQLGERVEDRRGFGFMSPAIYDTAWVSMISKTIDDQKTWLFAECFQYILSHQLEDGGWAMYASEIDAILNTSASLLSLKRHLSNPYQITSITQEDLSARINRAQNALQKLLNEWNVDSTLHVGFEILVPALLRYLEDEGIAFAFSGRERLLEIEKQKLSKFKAQYLYLPIKVTALHSLEAFIGAIEFDKVSHHKVSGAFMASPSSTAAYMMHATQWDDECEDYLRHVIAHASGKGSGGVPSAFPSTIFESVWPLSTLLKVGYDLNSAPFIEKIRSYLHDAYIAEKGILGFTPFVGADADDTATTILVLNLLNQPVSVDAMLKEFEEEHHFKTYSQERNPSFSANCNVLLALLYSQEPSLYSAQIEKAIRFLYKQFTDSEMDVRDKWNLSPYYSWMLMTQAITRLTTLQKTSKLSTLRDDSISKGLISLLFRIASTVVKDQKPGGSWGTRASKEETAYAVLILTYAFYLDEVTESLRHDIKIAIENGCSFLSERTMQSDSEWLWVEKVTYKSEVLSEAYILAALKRAADLPDENAEAAPVINGISTNGFEHTDRINGKLKVNGTNGTNGSHETNGINGTHEIEQINGVNGTNGHSDVPHDTNGWVEEPTAINETNGHYVNGTNHETPLTNGISNGDSVSVHTDHSDSYYQRSDWTADEEQILLGPFDYLESLPGKNMRSQLIQSFNTWLKVPTESLDVIIKVISMLHTATLLIDDIQDQSILRRGQPVAHSIFGTAQAMNSGNYVYFLALREVQKLQNPKAISIYVDSLIDLHRGQGMELFWRDSLMCPTEEQYLDMVANKTGGLFCLAIQLMQAEATIQVDFIPLVRLLGIIFQICDDYLNLKSTAYTDNKGLCEDLTEGKFSFPIIHSIRSNPGNRQLINILKQKPREDDIKRYALSYMESTNSFEYTRGVVRKLKTEAIDTIQGLEKHGLEENIGIRKILARMSLEL
B6: clcA 1-465 C85A/H234C/I201A (Escherichia coli, UniProt P37019); chain MKTDTPSLETPQAARLRRRQLIRQLLERDKTPLAILFMAAVVGTLVGLAAVAFDKGVAWLQNQRMGALVHTADNYPLLLTVAFLASAVLAMFGYFLVRKYAPEAGGSGIPEIEGALEDQRPVRWWRVLPVKFFGGLGTLGGGMVLGREGPTVQIGGNIGRMVLDIFRLKGDEARHTLLATGAAAGLAAAFNAPLAGILFIAEEMRPQFRYTLISIKAVFIGVIMSTIMYRIFNCEVALIDVGKLSDAPLNTLWLYLILGIIFGIFGPIFNKWVLGMQDLLHRVHGGNITKWVLMGGAIGGLCGLLGFVAPATSGGGFNLIPIATAGNFSMGMLVFIFVARVITTLLCFSSGAPGGIFAPMLALGTVLGTAFGMVAVELFPQYHLEAGTFAIAGMGALLAASIRAPLTGIILVLEMTDNYQLILPMIITGLGATLLAQFTGGKPLYSAILARTLAKQEAEQLARSK
B7: SUN5 (Homo sapiens, UniProt Q8TC36); sequence looked up; chain MPRSSRSPGDPGALLEDVAHNPRPRRIAQRGRNTSRMAEDTSPNMNDNILLPVRNNDQALGLTQCMLGCVSWFTCFACSLRTQAQQVLFNTCRCKLLCQKLMEKTGILLLCAFGFWMFSIHLPSKMKVWQDDSINGPLQSLRLYQEKVRHHSGEIQDLRGSMNQLIAKLQEMEAMSDEQKMAQKIMKMIHGDYIEKPDFALKSIGASIDFEHTSVTYNHEKAHSYWNWIQLWNYAQPPDVILEPNVTPGNCWAFEGDRGQVTIQLAQKVYLSNLTLQHIPKTISLSGSLDTAPKDFVIYGMEGSPKEEVFLGAFQFQPENIIQMFPLQNQPARAFSAVKVKISSNWGNPGFTCLYRVRVHGSVAPPREQPHQNPYPKRD
B8: ccmK2 1-102 (Synechococcus elongatus, UniProt Q03511); chain MPIAVGMIETLGFPAVVEAADAMVKAARVTLVGYEKIGSGRVTVIVRGDVSEVQASVSAGLDSAKRVAGGEVLSHHIIARPHENLEYVLPIRYTEAVEQFRM
B9: tnsC 1-503 A225V (Escherichia coli, UniProt P05846); sequence looked up; chain MSATRIQAVYRDTGVEAYRDNPFIEALPPLQESVNSAASLKSSLQLTSSDLQKSRVIRAHTICRIPDDYFQPLGTHLLLSERISVMIRGGYVGRNPKTGDLQKHLQNGYERVQTGELETFRFEEARSTAQSLLLIGCSGSGKTTSLHRILATYPQVIYHRELNVEQVVYLKIDCSHNGSLKEICLNFFRALDRALGSNYERRYGLKRHGIETMLALMSQIANAHVLGLLVIDEIQHLSRSRSGGSQEMLNFFVTMVNIIGVPVMLIGTPKAREIFEADLRSARRGAGFGAIFWDPIQQTQRGKPNQEWIAFTDNLWQLQLLQRKDALLSDEVRDVWYELSQGVMDIVVKLFVLAQLRALALGNERITAGLLRQVYQDELKPVHPMLEALRSGIPERIARYSDLVVPEIDKRLIQLQLDIAAIQEQTPEEKALQELDTEDQRHLYLMLKEDYDSSLLIPTIKKAFSQNPTMTRQKLLPLVLQWLMEGETVVSELEKPSKSKKVS
B10: KCNJ13 2-360 (Homo sapiens, UniProt O60928-1); sequence looked up; chain DSSNCKVIAPLLSQRYRRMVTKDGHSTLQMDGAQRGLAYLRDAWGILMDMRWRWMMLVFSASFVVHWLVFAVLWYVLAEMNGDLELDHDAPPENHTICVKYITSFTAAFSFSLETQLTIGYGTMFPSGDCPSAIALLAIQMLLGLMLEAFITGAFVAKIARPKNRAFSIRFTDTAVVAHMDGKPNLIFQVANTRPSPLTSVRVSAVLYQERENGKLYQTSVDFHLDGISSDECPFFIFPLTYYHSITPSSPLATLLQHENPSHFELVVFLSAMQEGTGEICQRRTSYLPSEIMLHHCFASLLTRGSKGEYQIKMENFDKTVPEFPTPLVSKSPNRTDLDIHINGQSIDNFQISETGLTE
B11: naaA 1-425 (Bradyrhizobium sp., UniProt D3WZ85); chain MAGSNDVAKVMKTLDGMREGLIQTAVELGSIEAPTGREGAAGDYVYEWMARNGFGPERVGVFDDRFNVVGRLRGTGGGASLSFNSHLDTIMAREDTARFADANDRIYHEAWHEEGRIYGYSVVNCKGPMACWLIAAKALKEAGAALKGDVVLTAVCGEIDCEPVDEFQGHDYLAEDIGARYAISHGAISDYALVAEATNFKPAWVEAGKVFLKVTVFAGPSRYTPYVPRPVAALDSPNAIVRMAKLVEALEEWADNYEKRYTREYGGGTVVPKVAIGAIRGGVPYKIYRFPELCSIYMDIRLNPDTNPLVVQREVEAVVSKLGLKAEVKPFLFRRGYEAQGIEPLQNALEVAHREVVGRPTERPGSPECSMWRDTNPYNELGIPSLTYGCGGGAGGGNTYFLVDDMLKAAKVYAMTAMDLCNRTP
UniProt P94679, sequence (whole entry, looked up): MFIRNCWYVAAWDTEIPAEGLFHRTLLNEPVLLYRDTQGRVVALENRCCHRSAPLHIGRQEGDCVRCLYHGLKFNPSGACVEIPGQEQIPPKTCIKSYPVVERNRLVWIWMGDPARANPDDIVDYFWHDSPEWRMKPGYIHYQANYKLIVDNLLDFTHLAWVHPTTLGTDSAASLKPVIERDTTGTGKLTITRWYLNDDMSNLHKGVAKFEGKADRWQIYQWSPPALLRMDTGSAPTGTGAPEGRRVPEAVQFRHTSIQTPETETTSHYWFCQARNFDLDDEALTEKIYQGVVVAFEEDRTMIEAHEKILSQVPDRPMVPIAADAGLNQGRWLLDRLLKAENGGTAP
UniProt Q9FNG3, sequence (whole entry, looked up): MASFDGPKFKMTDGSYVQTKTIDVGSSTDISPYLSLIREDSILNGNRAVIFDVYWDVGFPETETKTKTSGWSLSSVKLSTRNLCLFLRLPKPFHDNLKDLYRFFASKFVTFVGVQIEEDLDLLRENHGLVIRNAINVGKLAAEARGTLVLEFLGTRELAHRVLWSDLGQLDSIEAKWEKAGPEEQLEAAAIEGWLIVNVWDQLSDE

Substance = B1 (ASAP3 7-282); target or system = itself; assay = SEC-MALS; quantity = subunits per oligomer; value = 2
Substance = B2 (aqpZ 1-231 K155A); target or system = itself; assay = native MS; quantity = subunits per oligomer; value = 4
Substance = B3 (hsp18 28-148); target or system = itself; assay = cross-linking; quantity = subunits per oligomer; value = 2 subunits
Substance = B4 (POL30 1-258 E113G); target or system = itself; assay = native gel; quantity = subunits per oligomer; value = 3
Substance = B5 (protein S723T); target or system = itself; assay = class averages, 2D, cryo-EM; quantity = subunits per oligomer; value = 6
Substance = human RAB7A; target or system = CYB5R4 knockout human cells; assay = PP6 interaction, 3xFLAG-PP6C IP-MS; conditions = concentration not given; scale = relative to: CYB5R4 KO over parental; quantity = log2 fold change; value = 1
Substance = AUUACCUCU (ssRNA); target or system = U2AF2; assay = sequencing of bound RNA; test system = RNA; conditions = motif only; quantity = Kd; value = 5290 nM
Substance = Aqp4 (Mus musculus, UniProt P55088-1); target or system = itself; assay = native gel; quantity = subunits per oligomer; value = 4
Substance = B6 (clcA 1-465 C85A/H234C/I201A); target or system = itself; assay = SEC; quantity = subunits per oligomer; value = 2
Substance = B7 (SUN5); target or system = itself; assay = cryo-EM structure; quantity = subunits per oligomer; value = 3
Substance = RICE2 (Arabidopsis thaliana, UniProt Q9FNG3); target or system = itself; assay = SEC; quantity = subunits per oligomer; value = 6
Substance = MKGMSKMPQFNLVWPREVLDLVRKVAEENGRSVNSEIYQRVMESFKKEGRIGA (Arc repressor 1-53 R13V (P22 phage, UniProt P03050)); target or system = itself; assay = SEC; quantity = subunits per oligomer; value = 2
Substance = CUGUUUCCU (ssRNA); target or system = U2AF2; assay = sequencing of bound RNA; test system = RNA; conditions = motif only; quantity = Kd; value = 130 nM
Substance = B8 (ccmK2 1-102); target or system = itself; assay = SEC; quantity = subunits per oligomer; value = 6
Substance = tsaM1 (Comamonas testosteroni, UniProt P94679); target or system = itself; assay = SEC; quantity = subunits per oligomer; value = 3
Substance = B9 (tnsC 1-503 A225V); target or system = itself; assay = cryo-EM; conditions = with: AMPPnP; quantity = subunits per oligomer; value = 7
Substance = ptcA fragment (Enterococcus faecalis) (sequence not shown); target or system = itself; assay = cross-linking; conditions = pH 8.25; quantity = subunits per oligomer; value = 3
Substance = B10 (KCNJ13 2-360); target or system = itself; assay = SEC; quantity = subunits per oligomer; value = 4
Substance = CRYBB2 (Homo sapiens, UniProt P43320); target or system = itself; assay = native MS; conditions = 11.5 µM, pH 7.5; quantity = subunits per oligomer; value = 4
Substance = B11 (naaA 1-425); target or system = itself; assay = SEC-SAXS; quantity = subunits per oligomer; value = 8

Repeated from above:
Substance = Aqp4 (Mus musculus, UniProt P55088-1); target or system = itself; assay = native gel; quantity = subunits per oligomer; value = 4
Substance = B6 (clcA 1-465 C85A/H234C/I201A); target or system = itself; assay = SEC; quantity = subunits per oligomer; value = 2
